Measured values gathered from unrelated publications.
Protocols differ between the studies behind these lines. Numbers after ± are the reported error. Converted amounts (≈) assume the structure as drawn.

O=C(O)[C@H](c1ccccc1Cl)N1CCc2sccc2C1 — result for “deviation from nominal”: 11% (HPLC-MS/MS; feline citrate plasma; 24 h, 4 °C, storage stability).
The half-life of COc1cccc(CN)c1O is reported as 30 min (male C57BL/6 mouse, heart; intraperitoneal, 200 mg/kg, single dose).
Under “adjusted serum trough concentration”, C[C@H]1O[C@@H](O[C@H]2[C@@H](O)C[C@H](O[C@H]3[C@@H](O)C[C@H](O[C@H]4CC[C@@]5(C)[C@H](CC[C@@H]6[C@@H]5C[C@@H](O)[C@]5(C)[C@@H](C7=CC(=O)OC7)CC[C@]65O)C4)O[C@@H]3C)O[C@@H]2C)C[C@H](O)[C@@H]1O is recorded as 1.26 ± 0.04 nmol/L (human, serum; oral, dose not given).
For COc1cc(OC)c(/C=C/S(=O)(=O)Cc2ccc(OC)c(NCC(=O)O)c2)c(OC)c1, the AUC(0-inf) was 19600 ± 23000 ng·h/mL (cancer patients, phase I, plasma; oral, 700 mg twice daily, day 1 cycle 1).
CCCC(CCC)NC(=O)c1ccc2c(c1)OCO2: “parent share of plasma peak area” 43.8% (LC-MS; Sprague-Dawley rat both sexes pooled, plasma; oral, 200 mg/kg, 1 h).
C#C[C@]1(O)CC[C@H]2[C@@H]3CCc4cc(O)ccc4[C@H]3CC[C@@]21C gave a thermodynamic solubility of 13.4 ± 0.47 mg/g (shake-flask; soybean oil; 37 °C).
`carbamazepine` gave a dissolved amount of 13.6% (USP paddle dissolution; simulated gastric fluid; 30 min, 37 °C, 75 rpm).
For CC(C)(C)NC(=O)[C@@H]1C[C@@H]2CCCC[C@@H]2CN1C[C@@H](O)[C@H](Cc1ccccc1)NC(=O)[C@H](CC(N)=O)NC(=O)c1ccc2ccccc2n1, the thermodynamic solubility was 7.09 ± 0.14 mg/g (shake-flask; Captex 355; 37 °C).
CC[C@@H]1C(=O)N(C)c2cnc(Nc3ccc(C(=O)N[C@H]4CC[C@H](N5CCN(CC6CC6)CC5)CC4)cc3OC)nc2N1C(C)C: “Cmax geometric mean” 489 ng/mL (human, plasma; intravenous infusion, 300 mg over 2 h, first infusion).
With COc1cc(N)c(Cl)cc1C(=O)NC1CCN(CCCOc2ccc(F)cc2)CC1OC (stereo not shown) the QTc change was 6.6 ± 2.4% (male Hartley guinea pig, anaesthetized; intravenous infusion, 0.3 mg/kg, 10 min infusion; relative to: baseline).
`des-acyl ghrelin (human)` gave a tissue/serum ratio of 7.02 µL/g (wild-type mice, midbrain; intravenous, dose not given, 10 min, vascular space corrected).
With CCCC[C@H](NC(C)=O)C(=O)N[C@H]1CCC(=O)NC[C@@H](C(=O)N[C@@H](Cc2c[nH]c3ccccc23)C(N)=O)NC(=O)[C@H](CCCNC(=N)N)NC(=O)[C@@H](Cc2ccccc2)NC(=O)[C@H](Cc2c[nH]cn2)NC1=O the CL/F was 16.2 mL/min/kg (male Sprague-Dawley rat, plasma; subcutaneous, 5 mg/kg, multiple doses, once daily).
Under “CYP1B1 mRNA level”, Oc1ccc(C=Cc2cc(O)cc(O)c2)cc1 is recorded as 3 fold (RT-PCR; ApcMin/+ mice; dose not given, together with: benzo[a]pyrene; relative to: untreated).
Under “maximum serum concentration”, C[C@]12CC[C@@H]3c4ccc(O)cc4CC[C@H]3[C@@H]1C[C@@H](O)[C@@H]2O is recorded as 0.0144 ng/mL (GC-MS; breast cancer women on NSAI, serum; vaginal, 0.03 mg daily, 1 h, day 28).
With Cc1nc2cccc(OCC(C)(C)C(=O)NC(C)C)c2c(N)c1C(=O)O the AUC(0-last) was 185 ± 15.3 ng·h/mL (Sprague-Dawley rat, male, plasma; oral gavage, 100 mg/kg, day 7).
O=C(C1CCCCC1)N1CC(=O)N2CCc3ccccc3C2C1 (stereo not shown) gave a thermodynamic solubility of 28 ± 1.08 mg/g (shake-flask; PEG400; 37 °C).
With `68Ga-DOTA` the K1 was 1.57 ± 0.67 mL/cm³/min (PET; Yucatan minipig, lean, pancreas; iv, 1.2 MBq/kg, 1-tissue compartment model).
The Tmax of CCCOc1ccc([C@H]2CNC(=O)N2c2ccc3[nH]cnc3c2)cc1 is reported as 30 min (human, plasma; oral, 200 mg, single dose, fasted).
N[C@@H](CC(=O)N1CCn2c(nnc2C(F)(F)F)C1)Cc1cc(F)c(F)cc1F gave an AUC(0-2 h) of 465 ± 181 ng·h/mL (healthy Korean subjects, plasma; oral, 100 mg single dose, ABCB1 C3435T CT).
For CN1C(=O)C2(Nc3ccccc3C(=O)N2Cc2cccnc2)c2cc(Br)ccc21 (stereo not shown), the logD was 2.6 (shake flask; aqueous buffer; pH 7.4).
CCOc1ccc(C[C@@H](CN(CCN(CC(=O)[O-])CC(=O)[O-])CC(=O)[O-])N(CC(=O)[O-])CC(=O)[O-])cc1.[Gd+3].[H+].[H+] gave a Km of 587 ± 15.4 µM (biliary efflux, DCE-MRI; rat; intravenous, 25 µmol/kg).
For O=C(Nc1cccc(C(F)(F)F)c1)NC1CCN(Cc2ccccc2)CC1, the intrinsic clearance was 90 mL/min/kg (CD-1 female mouse, liver microsomes; 0.8 µM).
NC(=O)N1c2ccccc2C=Cc2ccccc21 has a thermodynamic solubility of 73.9 ± 4.71 mg/g (shake-flask; PEG400; 37 °C).
With CC[C@H](C)CCCCC(=O)N[C@@H](CCN)C(=O)N[C@H](C(=O)N[C@@H](CCN)C(=O)N[C@H]1CCNC(=O)[C@H]([C@@H](C)O)NC(=O)[C@H](CCN)NC(=O)[C@H](CCN)NC(=O)[C@H](CC(C)C)NC(=O)[C@@H](Cc2ccccc2)NC(=O)[C@H](CCN)NC1=O)[C@@H](C)O the mid-interval concentration was 3400 ± 1100 ng/mL (UPLC-MS/MS; intensive care patients AKI, plasma; iv, dose not given, 6 h post-dose, steady state, polymyxin B dosing).
For CC1(C)CC[N+](C)(CC(=O)OC2CCCCCCCCCCC2)CC1, the microsomal CLint was 456 µL/min/mg (metabolic stability; male CD-1 mouse, liver microsomes; 1 µM, pH 7.4).
For O=C(O)c1cc(-c2ccc(F)cc2F)ccc1O, the thermodynamic solubility was 16.5 ± 1.73 mg/g (shake-flask; Captex 355; 37 °C).
CN1CC[C@@H](NC(=O)Nc2ccc(C#N)cc2)C[C@@H]1c1nc2ccccc2[nH]1: “average plasma concentration” 646 ng/mL (Japanese patients, plasma; oral, 100 mg once daily, cycle 1 day 21, steady state, geometric mean).
CC1(C)Oc2cc3oc(=O)ccc3cc2C[C@@H]1O has an organ weight of 1.62 ± 0.14 g (CD-1 mouse, male, liver; oral gavage, 80 mg/kg daily, 4 weeks).
The solubility of C[C@](N)(Cc1ccc(O)c(O)c1)C(=O)O is reported as 271 µg/mL (≈ 1280 µM) (supercritical carbon dioxide; 5 h, 313 K, 27 MPa, density 893.5 kg/m3).
The Vz/F of O=C1N=C(N2CCOCC2)CN1c1ccc(Cl)cc1 is reported as 0.556 L/kg (beagle dog, both sexes, plasma; oral, 30 mg/kg, tablets, fasted, day 0).
With Cc1ncnc2c1c(Cl)cn2[C@@H]1O[C@H](CO)[C@@H](O)[C@H]1O the compound remaining was 98% (metabolic stability; mouse, liver microsomes; 1 h).
For Cc1nc(-c2ccc(OCC(C)C)c(C#N)c2)sc1C(=O)O, “Vz/F at steady state” read 58.4 ± 15 L (pediatric patients under sample A kg, plasma; oral, 20 mg once daily, fed, PopPK post hoc).
C=CC(N)CCC(=O)O (stereo not shown) has a Tmax (median) of 40.2 min (male Sprague-Dawley rat, plasma; oral, 1.0 mg/kg, formulation 2, together with: infant formula 1500 mg/kg).
CC(C)(C)NC(=O)[C@@H]1C[C@@H]2CCCC[C@@H]2CN1C[C@@H](O)[C@H](Cc1ccccc1)NC(=O)[C@H](CC(N)=O)NC(=O)c1ccc2ccccc2n1 has an effective permeability of 36 ± 5 ×10⁻⁶ cm/s (equilibrium dialysis; cellulose membrane, cell-free; pH 7.4, together with: 0.1% w/w Pluronic P85).
For CCCC[C@@H]1NC(=O)[C@@H](NC(=O)[C@H](CCC(=O)O)NC(=O)CNC(=O)CN2CCN(CC(=O)O)CCN(CC(=O)O)CCN(CC(=O)O)CC2)CCCCNC(=O)C[C@@H](C(N)=O)NC(=O)[C@H](C(C)C)NC(=O)[C@@H]2CCCN2C(=O)[C@H](CCCNC(=N)N)NC(=O)CNC(=O)[C@H](Cc2c[nH]c3ccccc23)NC(=O)[C@H](CCCNC(=N)N)NC(=O)[C@@H](Cc2ccccc2)NC(=O)[C@H](Cc2c[nH]cn2)NC(=O)[C@H](CCC(=O)O)NC1=O [indium-111 labelled], the tissue uptake was 0.2 ± 0.09 %ID/g (C57 mice, B16/F10 lung metastatic melanoma, heart; intravenous, 0.037 MBq, 2 h).
CC(C)=CCC[C@](C)(O[C@@H]1O[C@H](CO)[C@@H](O)[C@H](O)[C@H]1O)[C@H]1CC[C@]2(C)[C@@H]1[C@H](O)C[C@@H]1[C@@]3(C)CC[C@H](O)C(C)(C)[C@@H]3[C@@H](O[C@@H]3O[C@H](CO)[C@@H](O)[C@H](O)[C@H]3O)C[C@]12C gave a recovery of 28.3% (Sprague Dawley rat, male, small intestine site 4 contents; oral, 0.3 g/kg TU-100, 2 h, no β-glucuronidase treatment; relative to: ingested amount).
For O=c1c(O)c(-c2ccc(O)c(O)c2)oc2cc(O)cc(O)c12, the Papp A→B was 9.22 ×10⁻⁶ cm/s (mass spectrometry; Caco-2; 40 µM, 6 h).

A few entries again:
For O=C(Nc1cccc(C(F)(F)F)c1)NC1CCN(Cc2ccccc2)CC1, the intrinsic clearance was 90 mL/min/kg (CD-1 female mouse, liver microsomes; 0.8 µM).
NC(=O)N1c2ccccc2C=Cc2ccccc21 has a thermodynamic solubility of 73.9 ± 4.71 mg/g (shake-flask; PEG400; 37 °C).
